Measured values gathered from unrelated publications.
Parts stem from different laboratories: compare values within a part only. Positions count from the first letter of the parent shown.

Study 1
Target: Sal-like protein 4, full length isoform A (SALL4, Homo sapiens, UniProt Q9UJQ4, residues 1-1053)
Sequence of UniProt Q9UJQ4 (whole entry, looked up): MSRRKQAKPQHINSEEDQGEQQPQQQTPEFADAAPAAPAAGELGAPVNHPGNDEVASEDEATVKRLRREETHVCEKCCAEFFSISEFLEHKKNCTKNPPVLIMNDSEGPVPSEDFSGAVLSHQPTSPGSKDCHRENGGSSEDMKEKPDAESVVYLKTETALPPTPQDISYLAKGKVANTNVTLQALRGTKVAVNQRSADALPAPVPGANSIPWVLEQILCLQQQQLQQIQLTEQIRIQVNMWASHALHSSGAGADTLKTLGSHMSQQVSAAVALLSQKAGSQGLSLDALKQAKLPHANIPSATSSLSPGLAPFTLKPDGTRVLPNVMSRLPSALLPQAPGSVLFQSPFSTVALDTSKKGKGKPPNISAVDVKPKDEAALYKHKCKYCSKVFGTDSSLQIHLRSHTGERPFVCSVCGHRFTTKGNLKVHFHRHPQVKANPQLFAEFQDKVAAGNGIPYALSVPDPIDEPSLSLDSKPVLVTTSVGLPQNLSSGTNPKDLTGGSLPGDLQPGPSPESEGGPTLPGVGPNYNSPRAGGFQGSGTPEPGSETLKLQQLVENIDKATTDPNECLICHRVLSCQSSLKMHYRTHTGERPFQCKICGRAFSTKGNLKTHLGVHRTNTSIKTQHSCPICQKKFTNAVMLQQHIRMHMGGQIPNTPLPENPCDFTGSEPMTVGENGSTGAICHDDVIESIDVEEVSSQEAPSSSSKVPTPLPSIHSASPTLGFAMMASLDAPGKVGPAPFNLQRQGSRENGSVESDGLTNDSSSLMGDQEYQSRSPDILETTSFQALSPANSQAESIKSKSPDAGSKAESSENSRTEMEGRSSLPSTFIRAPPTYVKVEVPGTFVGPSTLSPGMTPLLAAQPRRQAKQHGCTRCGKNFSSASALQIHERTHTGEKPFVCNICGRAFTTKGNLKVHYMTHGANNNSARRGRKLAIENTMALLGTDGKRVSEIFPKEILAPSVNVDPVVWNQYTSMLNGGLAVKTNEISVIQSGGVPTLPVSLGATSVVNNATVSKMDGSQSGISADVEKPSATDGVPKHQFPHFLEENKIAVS
Technique: universal PBM
Molecule type: double-stranded DNA, one strand shown
Sample: in vitro
Concentration: 600 nM
Notes: 8-mer, flanks averaged, mean of replicates
Direction: higher = stronger binding
Measurement: E-score
Strand = AACCGATA; result = 0.162
Strand = AACGTGGC; result = -0.112
Strand = ACTCCGTA; result = -0.0958
Strand = CAAGCGGG; result = -0.322
Strand = CACCAGTG; result = -0.187
Strand = CATGAACA; result = 0.17
Strand = CCGTCCTA; result = -0.00294
Strand = CTGCAGTC; result = -0.302
Strand = AAATGCAC; result = 0.0801

Study 2
Target: ABI1, truncated, D143A, DHFR fusion (Arabidopsis thaliana)
Technique: DHFR PCA, deep sequencing
Sample: yeast
Notes: methotrexate growth selection, single substitutions
With: (+)-ABA 2500 µM
Relative to: wild-type fitted maximum
Direction: higher = stronger binding
Measurement: relative binding score
Starting sequence: PYL1, truncated, DHFR fusion (Arabidopsis thaliana); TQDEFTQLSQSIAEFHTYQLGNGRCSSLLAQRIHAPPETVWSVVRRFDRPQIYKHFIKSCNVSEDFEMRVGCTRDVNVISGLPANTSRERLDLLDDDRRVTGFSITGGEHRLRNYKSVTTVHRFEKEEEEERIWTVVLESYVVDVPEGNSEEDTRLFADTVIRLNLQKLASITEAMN
Change = I57A; result = 82%
Change = G21R; result = 99.3%
Change = S87P; result = 18.5%
Change = T39R; result = 97%
Change = G148P; result = 89.9%
Change = V121N; result = -6.22%
Change = H55A; result = 95.6%

Study 3
Target: Histone acetyltransferase KAT6A, winged helix 2, GST fusion (KAT6A, Homo sapiens, UniProt Q92794, residues 85-181)
Technique: protein binding microarray
Molecule type: double-stranded DNA, one strand shown
Sample: in vitro
Concentration: not given
Notes: 8-mer, flanks averaged, mean of 2 arrays, mostly near background
Relative to: not given
Direction: higher = stronger binding
Measurement: E-score
Residues (chain): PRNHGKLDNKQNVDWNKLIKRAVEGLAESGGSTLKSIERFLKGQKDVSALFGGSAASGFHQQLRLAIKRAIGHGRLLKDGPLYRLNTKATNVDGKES
Strand = ACAGAGGG; result = -0.07
Strand = CCACTTGA; result = 0.0169
Strand = CAACTGAC; result = -0.112
Strand = ACCGCAAC; result = 0.259
Strand = CACCCATA; result = -0.326
Strand = GAAAAGCC; result = 0.0502
Strand = CGAACCTC; result = 0.00373
Strand = GATGCTAA; result = 0.138
Strand = CGGAACCC; result = 0.108

Single results of other studies
Substance = PhoQ, residues 284 288 289 292 302 303 SSTLLI; target = PhoP, residues 12 14 15 18 19 LHHSG (Escherichia coli, UniProt P23836); assay = Sort-seq, refers to: YFP reporter; system = E. coli; setting = PhoQ-PhoP variant library, with: 10 µM Mg2+; how to read = relative to: high Mg2+ state, higher = stronger signaling; measurement = fold induction; result = 8.61
